Measurements of several laboratories.
Values joined by “and” are separate records of one study, mostly repeats; a detail may differ.
CDK7 with cyclin H: Cyclin-dependent kinase 7, with cyclin H (CDK7, Homo sapiens, UniProt P50613)
CDK7 with cyclin H, MAT1: Cyclin-dependent kinase 7, with cyclin H, MAT1 (CDK7, Homo sapiens, UniProt P50613)
CDK7: Cyclin-dependent kinase 7 (CDK7, Homo sapiens, UniProt P50613)

SMILES | target | assay | setting | how to read | measurement | value
NC(=O)[C@@H](O)C[C@H]1CCc2sc3ncnc(O[C@H]4CC[C@H](N5CCOCC5)CC4)c3c21 | CDK7 with cyclin H | enzyme activity, inhibitor | 10 µM | – | inhibition | 9%
COCC12C(=O)NC3C4(C(OC)CC1O)C1CC5(O)C(OC)C(O)C(OC(C)=O)(C1C5OC(=O)c1ccccc1)C3(O)C(OC)C24 (stereo not shown) | CDK7 with cyclin H, MAT1 | kinase activity, inhibitor, ProQinase kinase profiling | 25 µM | reference: control | remaining activity | 100% and 118%
CN1CCN(Cc2ccc(NC(=O)c3cccc(C#Cc4cnc(N)c5ncccc45)c3)cc2C(F)(F)F)CC1 | CDK7 | cell-free assay, competition with immobilised ligand | 50 nM | – | remaining binding | 58%
COc1c2c(cc3oc(-c4ccccc4)cc(=O)c13)OCO2 | CDK7 | inhibitor | 10 µM | – | inhibition | 94%
C=CC(=O)N1Cc2nc(-c3cc(-c4cc(Cl)cnc4Cl)c(F)cc3F)n(-c3ccncn3)c2C1 | CDK7 with cyclin H, MAT1 | kinome panel | 1 µM | – | inhibition | -5.2%
COc1c(Cl)cccc1Nc1c(-c2ccncc2C#C[C@@]2(C)CCCN2C(=O)/C=C/CN(C)C)[nH]c2c1C(=O)NCC2 | CDK7 | binding, competition with immobilised ligand | 3 µM | – | remaining binding | 92%
CN1C[C@@H](c2c[nH]c3cc(Br)ccc23)NC[C@@H]1c1c[nH]c2cc(Br)ccc12 | CDK7 with cyclin H | enzyme activity, inhibitor | 10 µM | – | remaining activity | 101%
Cc1ccc(-c2c(/C=C(\C#N)C(=O)NC(C)C)n(CCCO)c3ncnc(N)c23)cc1 | CDK7 | cell-free assay, competition with immobilised ligand | 1 µM | – | remaining binding | 100%
O=C(O)CCC(=O)c1cccc(NS(=O)(=O)c2c[nH]c3ncccc23)c1 | CDK7 | kinase activity, radiometric | 10 µM | – | remaining activity | 85%
O=c1cc(-c2cccc(O)c2)oc2c1ccc1occc12 | CDK7 | enzyme activity, inhibitor | 10 µM | – | inhibition | > 50%
C=CC(=O)Nc1cccc(-c2cnc3[nH]cc(C(=O)NC(C)(C)C)c3n2)c1 | CDK7 | enzyme activity, inhibitor | 0.1 µM | – | inhibition | 4%
COc1ccc(NC(=O)Nc2ccc3c(c2)C(=O)N(C(C)CO)CC(C)C(CN(C)Cc2ccc4c(c2)OCO4)O3)cc1 (stereo not shown) | CDK7 | binding, competition with immobilised ligand | 10 µM | – | remaining binding | 77%
C#CCOC(=O)[C@]1(C)C=C(C(=O)OC(C)(C)C)C(=O)CC1 | CDK7 with cyclin H, MAT1 | kinase activity, Kinase-Glo | concentration not given | – | normalized luminescence | 0.0366
O=c1c(-c2ccc(Cl)c(CN3CCOCC3)c2)coc2cc(O)ccc12 | CDK7 | enzyme activity, inhibitor | 1 µM | – | remaining activity | 110%
Nc1ncc(-c2cc(-c3cnn(CC(F)(F)F)c3)ncc2F)nc1C(=O)NC1CNCC(F)C1 (stereo not shown) | CDK7 | enzyme activity | 1 µM | reference: DMSO control | remaining activity | 53.8%
Cc1cccc(O[C@H]2CCC[C@@H](C(C)CNCc3ccncc3)C2)c1 (relative stereo) | CDK7 | enzyme activity, inhibitor | 1 µM | – | inhibition | 3%
COc1cc(Nc2nccc(-c3cnn4nc(OC)ccc34)n2)cc(C(F)(F)F)c1 | CDK7 | binding, competition with immobilised ligand | 1 µM | – | remaining binding | 75%
O=C(Nc1cc(-c2ccnc3[nH]ccc23)c(Cl)cn1)[C@H]1CCC[C@@H](NC(=O)C(F)(F)F)C1 | CDK7 | binding, competition with immobilised ligand | 0.1 µM | – | remaining binding | 3.2%
O=C(Cc1ccc(OCc2ccccc2)cc1)NC1(C(=O)O)CCN(C(=O)c2ccc(-c3cccc(Cl)c3)cc2)CC1 | CDK7 | enzyme activity, inhibitor | 10 µM | – | activity vs control | 193%
COc1ccc(C(=O)/C=C/c2ccccc2-c2c[nH]c3ccc(C#N)cc23)c(O)c1 | CDK7 with cyclin H | enzyme activity, inhibitor | 20 µM | – | inhibition | -15%
C=CC(=O)N1CCCC(n2c(=O)c3ncccc3n(Cc3ccc(Oc4ccccc4)cc3)c2=O)C1 (stereo not shown) | CDK7 | cell-free assay, competition with immobilised ligand | 1 µM | – | remaining binding | 85%
CC(=O)N1c2ccc(-c3ccc(CNC(=O)c4cn5cc(-c6cnc(N)nc6)nc(N6CCOCC6)c5n4)cc3)cc2CC[C@@H]1C | CDK7 | KINOMEscan | 10 µM | – | remaining binding | 89%
O=C=[N][Ru-4]123([n]4c5ccc(O)cc5c5c6c(c7cc(F)c[n+]1c7c54)C(=O)NC6=O)[S+]1CC[S+]2CC[S+]3CC1 (stereo not shown) | CDK7 | enzyme activity | 100 nM, human enzyme, with: 10 µM ATP | reference: untreated | remaining activity | 114%
CCn1cc(C(=O)O)c(=O)c2c(N)c(F)c(NC3CCCCC3)cc21 | CDK7 with cyclin H, MAT1 | kinase activity | 0.1 µM, with: ATP at Km | – | inhibition | -21.3%
CN1CC[C@@H](COc2cnc(C#N)cc2-c2ccn3nc(NC(=O)C4CC4)cc3c2)C1 | CDK7 with cyclin H, MAT1 | inhibitor, KinaseProfiler panel | 1 µM | – | inhibition | 0%

Repeated from above:
SMILES | target | assay | setting | how to read | measurement | value
CN1CCN(Cc2ccc(NC(=O)c3cccc(C#Cc4cnc(N)c5ncccc45)c3)cc2C(F)(F)F)CC1 | CDK7 | cell-free assay, competition with immobilised ligand | 50 nM | – | remaining binding | 58%
CC(=O)N1c2ccc(-c3ccc(CNC(=O)c4cn5cc(-c6cnc(N)nc6)nc(N6CCOCC6)c5n4)cc3)cc2CC[C@@H]1C | CDK7 | KINOMEscan | 10 µM | – | remaining binding | 89%
O=C(Nc1cc(-c2ccnc3[nH]ccc23)c(Cl)cn1)[C@H]1CCC[C@@H](NC(=O)C(F)(F)F)C1 | CDK7 | binding, competition with immobilised ligand | 0.1 µM | – | remaining binding | 3.2%
COc1c(Cl)cccc1Nc1c(-c2ccncc2C#C[C@@]2(C)CCCN2C(=O)/C=C/CN(C)C)[nH]c2c1C(=O)NCC2 | CDK7 | binding, competition with immobilised ligand | 3 µM | – | remaining binding | 92%
